{"data": "Measured values gathered from unrelated publications", "note": "A part holds a random share of what one study measured."}
{"data": "Sample 1", "target": "Sal-like protein 4, full length isoform B (SALL4, Homo sapiens, UniProt Q9UJQ4-2, residues 1-616)", "method": "universal PBM", "molecule type": "double-stranded DNA, one strand shown", "medium": "in vitro", "concentration": "not given", "notes": "8-mer, flanks averaged, mean of replicates", "reading": "higher = stronger binding"}
{"Strand": "GGCGCTCA", "E-score": -0.276}
{"Strand": "CAATGGCA", "E-score": 0.0439}
{"Strand": "ACCTAGCG", "E-score": -0.0437}
{"Strand": "ATGAGAAG", "E-score": 0.0486}
{"Strand": "AGTTCCAA", "E-score": -0.00036}
{"Strand": "CCTCGATC", "E-score": -0.132}
{"data": "Sample 2", "target": "Histone acetyltransferase KAT6A, both winged helices, GST fusion (KAT6A, Homo sapiens, UniProt Q92794, residues 1-181)", "method": "protein binding microarray", "molecule type": "double-stranded DNA, one strand shown", "medium": "in vitro", "concentration": "not given", "notes": "8-mer, flanks averaged, mean of 2 arrays, mostly near background", "relative to": "not given", "reading": "higher = stronger binding", "Construct (chain)": "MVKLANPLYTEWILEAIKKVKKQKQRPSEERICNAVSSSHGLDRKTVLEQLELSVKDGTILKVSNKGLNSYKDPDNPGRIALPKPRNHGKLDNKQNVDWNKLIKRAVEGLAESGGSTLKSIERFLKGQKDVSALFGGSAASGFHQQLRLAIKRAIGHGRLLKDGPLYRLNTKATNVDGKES"}
{"Strand": "ACTCAGGA", "E-score": -0.0822}
{"Strand": "ATTGTCGG", "E-score": 0.124}
{"Strand": "CTCATCTA", "E-score": -0.23}
{"Strand": "CAAATAAA", "E-score": -0.0775}
{"Strand": "GTTCATAA", "E-score": -0.119}
{"data": "Sample 3", "target": "Prothrombin, mature alpha-thrombin (F2, Homo sapiens, UniProt P00734)", "method": "aptamer microarray, sandwich", "molecule type": "DNA with 2'F-ANA", "medium": "in vitro", "concentration": "200 nM", "notes": "whole 15-mer aptamer, many near background", "with": "Cy3 exosite-II aptamer, 400 nM", "reading": "higher = stronger binding", "strand": "GGTTGGTGTGGTTGG"}
{"Modification": "2'F-ANA at 7 9 10 11 12 13 15", "mean fluorescence intensity": "168 a.u."}
{"Modification": "2'F-ANA at 10 11 12 13 15", "mean fluorescence intensity": "275 a.u."}
{"Modification": "2'F-ANA at 3 5 6 7 8 9 10 14 15", "mean fluorescence intensity": "50.2 a.u."}
{"Modification": "2'F-ANA at 3 6 9 12 14", "mean fluorescence intensity": "645 a.u."}
{"Modification": "2'F-ANA at 1 2 4 5 6 10 11 12", "mean fluorescence intensity": "61.7 a.u."}
{"data": "Other studies, line by line"}
{"Substance": "PhoQ, residues 284 288 289 292 302 303 SLKLQV", "target": "PhoP, residues 12 14 15 18 19 NMSFL (Escherichia coli, UniProt P23836)", "assay": "Sort-seq, refers to: YFP reporter", "test system": "E. coli", "setting": "PhoQ-PhoP variant library, with: 10 µM Mg2+", "scale": "relative to: high Mg2+ state, higher = stronger signaling", "quantity": "fold induction", "result": 6.77}
